Published values gathered from unrelated publications.
A part holds a random share of what one study measured.

Sample 1
Target: Histone acetyltransferase KAT6A, winged helix 2, GST fusion (KAT6A, Homo sapiens, UniProt Q92794, residues 85-181)
Method: protein binding microarray
Molecule type: double-stranded DNA, one strand shown
Medium: in vitro
Concentration: not given
Setting: 8-mer, flanks averaged, mean of 2 arrays, mostly near background
Baseline: not given
Reading: higher = stronger binding
Construct (chain): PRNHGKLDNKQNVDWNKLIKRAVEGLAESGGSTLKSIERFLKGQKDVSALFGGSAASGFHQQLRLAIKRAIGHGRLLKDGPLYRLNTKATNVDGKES
Sequence | E-score
ACTCGTCC | 0.00709
ATCCCTAA | -0.143
TTCATCAA | 0.0513
CCTGGTCG | 0.117
CCCGCGCG | 0.295
ACAGAAGT | -0.0388
AATCCTCT | -0.114

Sample 2
Target: Prothrombin, mature alpha-thrombin (F2, Homo sapiens, UniProt P00734)
Method: aptamer microarray, sandwich
Molecule type: DNA with 2'F-ANA
Medium: in vitro
Concentration: 200 nM
Setting: whole 15-mer aptamer, many near background
Added: Cy3 exosite-II aptamer, 400 nM
Reading: higher = stronger binding
Sequence | mean fluorescence intensity [a.u.]
GGTTGGTGTGGTTGG (2'F-ANA at 1 4 6 10 12 14 15) | 49.1
GGTTGGTGTGGTTGG (2'F-ANA at 2 3 7 8 9 15) | 775
GGTTGGTGTGGTTGG (2'F-ANA at 2 3 4 5 9 10 14) | 63.7
GGTTGGTGTGGTTGG (2'F-ANA at 1 2 3 5 7 8 11 12 15) | 95.8

Sample 3
Target: RING finger protein unkempt homolog, zinc fingers 1-6, GST-SBP tag (UNK, Homo sapiens, UniProt Q9C0B0, residues 30-357)
Chain of UniProt Q9C0B0 (30-357, looked up): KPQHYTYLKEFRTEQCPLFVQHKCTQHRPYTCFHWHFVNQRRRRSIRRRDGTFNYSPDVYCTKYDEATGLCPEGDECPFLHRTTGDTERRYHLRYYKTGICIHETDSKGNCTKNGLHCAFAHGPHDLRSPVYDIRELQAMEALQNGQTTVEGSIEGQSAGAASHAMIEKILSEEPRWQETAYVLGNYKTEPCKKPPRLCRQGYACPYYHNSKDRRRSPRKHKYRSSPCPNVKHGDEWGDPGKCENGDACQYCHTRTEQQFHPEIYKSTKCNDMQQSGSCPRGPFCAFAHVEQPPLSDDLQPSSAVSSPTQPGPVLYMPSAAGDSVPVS
Method: RNA Bind-n-Seq
Molecule type: RNA
Medium: in vitro
Concentration: not given
Setting: RNA with constant flanks, human and mouse sites, ends assumed
Baseline: input RNA pool
Reading: higher = stronger binding
Sequence | bound/input enrichment
GGGAGUUCUACAGUCCGACGAUCCUUGGGGUCAGAGAAAGGGACAGAUACAGAAGGACCUUGCUUGCAGGAAGCCAUGCAGUUAGUUUCUGCAGUUAGUCGUGUGAGGCUAGGUGGUUGGGCAGGCCUCGGGCUGUAGGUGUUCAACAGAGGAUUGAGCAUCA | 0.69 ratio
GGGAGUUCUACAGUCCGACGAUCUCAACAGACAACAUCAAAUACCAGCCUAAAGGGGGGCAGGUACAAAUUGUUACCAAGAAAAUAGACCUAAGCCAUGUGACAUCCAAAUGUGGCUCUCUGAAGAACAUCCGCCACAGGCCACAACAGAGGAUUGAGCAUCA | 0.619 ratio
GGGAGUUCUACAGUCCGACGAUCACAUCUCAUAUUUCGGCACAGUCCUUUUUUGAAAAUAAAUAUGGUCACUUAGAUAUGUUCAGUACAUUACGUUCCUCUAGCUUGUACAGGCAACAUCCAAAAACUCUUCGAAGCAUUUGUCAACAGAGGAUUGAGCAUCA | 0.527 ratio

Single results of other studies
Molecule | target | assay | system | setting | how to read | quantity | result
PhoQ, residues 284 288 289 292 302 303 SLCLSL | PhoP, residues 12 14 15 18 19 QYCSL (Escherichia coli, UniProt P23836) | Sort-seq, measured: YFP reporter | E. coli | PhoQ-PhoP variant library, added: 10 µM Mg2+ | baseline: high Mg2+ state, higher = stronger signaling | fold induction | 7

Excerpt of the above (sample 1):
Sequence | E-score
ACTCGTCC | 0.00709
